Measured values of several laboratories.
A part holds a random share of what one study measured. Changes are numbered by the printed parent chain.

Set 1 — method: aptamer microarray, sandwich; form: DNA with 2'F-ANA; medium: in vitro; concentration: 200 nM; together with: Cy3 exosite-II aptamer, 400 nM; direction: higher = stronger binding; sequence: GGTTGGTGTGGTTGG
Target: Prothrombin, mature alpha-thrombin (F2, Homo sapiens, UniProt P00734)
Setting: whole 15-mer aptamer, many near background
| Modification | mean fluorescence intensity [a.u.] |
| --- | --- |
| 2'F-ANA at 4 7 8 9 10 11 15 | 82.2 |
| 2'F-ANA at 1 2 5 7 11 12 | 88.9 |
| 2'F-ANA at 4 6 7 8 9 | 333 |
| 2'F-ANA at 2 4 5 7 11 12 15 | 118 |
| 2'F-ANA at 2 4 7 10 13 15 | 183 |
| 2'F-ANA at 1 2 6 10 11 12 13 15 | 63.5 |
| 2'F-ANA at 2 3 4 5 6 7 8 10 11 12 14 | 47.1 |
| 2'F-ANA at 1 3 6 7 8 10 13 | 79.5 |
| 2'F-ANA at 1 2 3 4 5 6 12 14 15 | 77 |
| 2'F-ANA at 1 2 3 5 6 7 8 9 10 14 | 50.2 |
| 2'F-ANA at 2 4 5 6 7 8 10 11 13 | 55.8 |
| 2'F-ANA at 4 6 7 8 10 12 15 | 105 |
| 2'F-ANA at 1 2 4 7 8 9 10 12 13 14 15 | 52.1 |
| 2'F-ANA at 2 3 4 5 7 11 13 | 88.8 |
| 2'F-ANA at 3 5 8 10 11 13 15 | 66.4 |
| 2'F-ANA at 5 7 11 12 15 | 119 |
| 2'F-ANA at 1 2 4 11 12 13 14 15 | 52.8 |
| 2'F-ANA at 1 3 5 6 7 9 14 | 95.4 |
| 2'F-ANA at 2 4 5 6 8 11 12 13 | 84.8 |
| 2'F-ANA at 2 7 8 9 13 14 | 154 |
| 2'F-ANA at 2 3 5 7 8 10 11 12 15 | 59.3 |
| 2'F-ANA at 1 5 6 7 9 11 13 14 15 | 48 |
| 2'F-ANA at 5 7 9 12 15 | 159 |

Set 2 — method: RNA Bind-n-Seq; form: RNA; medium: in vitro; concentration: 200 nM; setting: whole 134-nt RNA, ends assumed; together with: 150 mM LiCl; relative to: input library; direction: higher = stronger binding; all molecules: 7-deaza-guanosine replaces G
Target: Fragile X messenger ribonucleoprotein 1, C-terminal low-complexity region (Fmr1, Mus musculus, UniProt P35922)
Shared flanks, not repeated: GGGAGUUCUACAGUCCGACGAUC … UGGAAUUCUCGGGUGUCAAGG
| Sequence | log2 enrichment |
| --- | --- |
| CUGUGCUACACAUCGUAUGUACCGAAUCGGGGAAAAAAAGGGGUUUUUUUGGGGAAAGGGGAAAGUAUUAUGUUACGCCGUUCGGAUCUG | -1.66 |
| UGCCUUGCAGAUACGUGGCUUUCCUGAAGCUGUUCCUGGAGACGGCGGAGAAGCACUUCAUGGUGGGCCACCGUGUCCACUACUAUGUCU | -0.499 |
| UGUGGAUGCCCUGCUGAAGAAGUCUGAGGCCCAGCAUGAACAGCCGGAAGAUGGAUGCCCCUUUGGUGCCCUGACGCAGCGCCUCCUGCA | -0.358 |
| UGGGAGGUGGAUUUUGUUUAUUUUUUUAGCUCAUUUCCAGGGAUGGGAAUUUUUUUUUAAUAUGUGUCAUGAAUAAAGUUGUUUUUGAAA | -0.0515 |
| GUCCUGUGCUACACAUCGUAUGUACCGAAUCGGGAAAAAGGGAAAAAGGGUUUUUGGGAAAGUAUUAUGUUACGCCGUUCGGAUCUGCAC | -1.77 |
| UGCAUGUGCACUGAUAGGCCAAGGCCAGCUGAACCAGGCCAUGAAAAUCCUACAAAAAGCUGAAGGUUGGAAGUUUGUUAAACUUAUCUG | -0.831 |
| CUGUGCUACACAUCGUAUGUACCGAAUCGGGGCCCCCCCGGGCCCCCCCGGGGCCCCCCCGGAAAGUAUUAUGUUACGCCGUUCGGAUCU | -1.48 |
| CAAGUCCUGUGCUACACAUCGUAUGUACCGAAUCGGGGUUGGGUUGGGGUUGGGGAAAGUAUUAUGUUACGCCGUUCGGAUCUGCACUUC | 0.0458 |
| CCUGUGCUACACAUCGUAUGUACCGAAUCAAAUUUUUAAACCCCCCCAAAUUUUUUUAAAAAAGUAUUAUGUUACGCCGUUCGGAUCUGC | 1.24 |
| ACCAUGCAGGUGGGCAUCUUUGGGAAGUGGGGCAAGGAAAGGAUAGGGAGGGGGGUAACACUUUGGGAACAGGUGGUCCCAGGUCGUUUC | 0.654 |
| UGGCCCUGGUGGCAUGCGGGGAGGAAGAGGUGGCCUCAUGGAUCGUGGUGGUCCCGGUGGAAUGUUCAGAAGUGGCCGUGGUGGAGACAG | -0.448 |

Set 3 — target: CCNE1, cyclin fold, Cln2 fusion (human); method: yeast growth competition, sequencing; medium: yeast; setting: strong parent motif; relative to: not given; direction: higher = stronger binding
Starting sequence: CDC25A docking peptide (human); PPHRRRLLFACSP
| Substitution | normalised enrichment score |
| --- | --- |
| PPHRRRLRFACSP [L8R] | 0.922 |
| PPHRCRLLFACSP [R5C] | 0.684 |
| PPHRRRLLFALSP [C11L] | 1.28 |
| PPHRRRLLFASSP [C11S] | 1.14 |
| PPHRRWLLFACSP [R6W] | 1.85 |
| PPHRRRELFACSP [L7E] | 0.491 |
| PPHRRNLLFACSP [R6N] | 0.975 |
| PPHRRRLLFQCSP [A10Q] | 1.95 |
| PPHRRRCLFACSP [L7C] | 0.865 |
| PPHRRRLLFPCSP [A10P] | 1.54 |
| PPHYRRLLFACSP [R4Y] | 0.936 |
| PPHRVRLLFACSP [R5V] | 1.38 |
| PPHRRRLEFACSP [L8E] | 2.57 |
| PPHRWRLLFACSP [R5W] | 1.32 |
| PPHRRRLLFACSQ [P13Q] | 1.55 |
| PPHRRRLLFACSK [P13K] | 0.607 |
| PPHRRRLLFACYP [S12Y] | 1.18 |
| PFHRRRLLFACSP [P2F] | 1.22 |
| APHRRRLLFACSP [P1A] | 1.08 |
| PPHRRRMLFACSP [L7M] | 0.897 |
| PPHRRCLLFACSP [R6C] | 0.87 |
| DPHRRRLLFACSP [P1D] | 1.16 |
| PPHRRRLSFACSP [L8S] | 3.44 |
| PPHRARLLFACSP [R5A] | 0.951 |
| PPHRRRLLFACSW [P13W] | 0.327 |

Set 4 — method: competition protein-binding microarray; form: double-stranded DNA, one strand shown; medium: in vitro; concentration: 2 µM; together with: Pho4 competitor, 0.05 µM; direction: higher = stronger binding; shared flanks, not repeated: … GTCTTGATTCGCTTGACGCTGCTG
Target: Centromere-binding protein 1, full length, His-tagged (CBF1, Saccharomyces cerevisiae, UniProt P17106, residues 1-351)
UniProt P17106, sequence (whole entry, looked up): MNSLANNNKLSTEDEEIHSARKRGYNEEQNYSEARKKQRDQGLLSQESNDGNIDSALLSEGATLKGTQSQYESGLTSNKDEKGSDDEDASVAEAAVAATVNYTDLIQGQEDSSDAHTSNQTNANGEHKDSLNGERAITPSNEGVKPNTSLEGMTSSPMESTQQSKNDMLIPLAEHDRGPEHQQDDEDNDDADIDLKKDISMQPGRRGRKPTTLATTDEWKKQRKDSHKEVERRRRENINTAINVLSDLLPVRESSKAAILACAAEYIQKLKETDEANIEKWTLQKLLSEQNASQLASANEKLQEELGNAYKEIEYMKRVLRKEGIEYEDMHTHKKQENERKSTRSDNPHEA
Setting: whole 60-bp probe, lowest competitor level
| Sequence | fluorescence intensity [a.u.] |
| --- | --- |
| TTGAGCTTGAAAGAGTGCGTGCAAATCATTCAATCA | 96.7 |
| AAAGCGGTAATTTTTCACGTGGGTTCACATATCTAT | 1030 |
| TTTGATTGGTAAACACACGTGGTTACATGAATTCTT | 1340 |
| CGTCCTAGTGATTTTCACGTGTACTCCATGAGGAAG | 935 |
| CCAGTACGATTCCGTCACGTGACTCGCGATCAACTA | 25600 |
| CCCACTTGTCTTCGATGCGTGCTTTTGCCAATCAAC | 87.2 |
| TGAAGACTTTGCATCTACGTGTCGGACAAGCTGCCC | 65.3 |
| CGGGGTTAAGTTTGAGCCGTGGGTGGCTTGCAGCAG | 55.5 |
| CATACCCAACCTTGATCTGTGGGTGAAGATATTTGT | 66 |
| CACGACTTGGCTACTCATTCTTTGTGAAACCTTAGA | 63.9 |
| AAATTACTAAGTTTTCACGTGCTCTACCCCGTATGA | 1450 |
| TGTAGAAGCAAAAAGCACGTCGCCTTGGCTGATGAG | 59 |
| TATTCCATCTTTTCCCTCGTGTTGACAATAGAGTCA | 123 |
| CATACCCAACCTTGTCACGTGTTTTAAGATATTTGT | 7290 |
| ACACCATCGCATACCCACGTGGCCGCTTCGTTTGCC | 659 |
| CGGGGTTAAGTTTGTACAGTGGGTGGCTTGCAGCAG | 78.6 |
| CCTTTAGCACATAACCATGTGATTTATCCTCGCTTA | 809 |
| CGGGGTTAAGTTTGTCACGCCACTTGCTTGCAGCAG | 192 |
| CTTTCCCGATCTTGGGGAGTGGGTGTAGCACATTTG | 65.4 |
| TGCGCAACAACTTGTCACTTCACTTTATGTCTAGAA | 73.2 |
| TCCGGACCCACCGATTGCGTGATGGCCTGTACAAGG | 77 |
| CATACCCAACCTTGTGTAGTGGGTGAAGATATTTGT | 72.3 |
| TAAGTTGTCAGGTTTCACGTGGCAACTACAAGAAAA | 787 |
| CGCCTACAACTTTGGCGCGTGAGCCAAGTGTCTTCT | 87.7 |
| AGGTTAACCTTTAAATATAAATATAGTAATCTTCAT | 87.5 |

Repeated from above (set 3):
| Substitution | normalised enrichment score |
| --- | --- |
| DPHRRRLLFACSP [P1D] | 1.16 |
| PPHRRRLLFPCSP [A10P] | 1.54 |
| PPHYRRLLFACSP [R4Y] | 0.936 |
| PPHRARLLFACSP [R5A] | 0.951 |
| APHRRRLLFACSP [P1A] | 1.08 |
| PPHRRRLSFACSP [L8S] | 3.44 |
| PPHRRRMLFACSP [L7M] | 0.897 |
| PPHRRRLRFACSP [L8R] | 0.922 |
| PPHRRRLLFACSK [P13K] | 0.607 |
| PPHRCRLLFACSP [R5C] | 0.684 |
| PFHRRRLLFACSP [P2F] | 1.22 |
| PPHRRRLLFASSP [C11S] | 1.14 |
| PPHRVRLLFACSP [R5V] | 1.38 |
| PPHRRRCLFACSP [L7C] | 0.865 |
